Results pooled from the literature.
Every numbered part comes from another study and shows a few of its results, in no order. Changes are numbered by the printed parent chain.

Sample 1
Target: PABPC1L2, full length, GST fusion (mouse, UniProt A0ABA7IW68)
Method: RNAcompete
Form: RNA
Matrix: in vitro
Concentration: 20 nM
Notes: 7-mer, probes averaged, single round
Relative to: mean of 7-mers
Reading: higher = stronger binding
Measurement: 7-mer Z-score
Construct (chain): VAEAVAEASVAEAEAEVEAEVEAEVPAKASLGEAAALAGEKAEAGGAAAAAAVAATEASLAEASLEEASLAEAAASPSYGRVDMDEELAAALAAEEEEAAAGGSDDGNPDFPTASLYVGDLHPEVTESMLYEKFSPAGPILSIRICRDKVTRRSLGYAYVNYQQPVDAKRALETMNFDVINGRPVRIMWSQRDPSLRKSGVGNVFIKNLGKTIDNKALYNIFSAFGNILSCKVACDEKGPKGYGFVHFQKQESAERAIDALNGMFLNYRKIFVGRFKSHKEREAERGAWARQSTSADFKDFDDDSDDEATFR
Oligonucleotide = UACGAAG; value = -0.148
Oligonucleotide = GUACUAA; value = -0.0138
Oligonucleotide = CGCCCCA; value = -0.438
Oligonucleotide = GCGAACC; value = -0.079
Oligonucleotide = CUAACGU; value = -0.316
Oligonucleotide = GGACGAA; value = 0.376
Oligonucleotide = AUUAUCG; value = -0.191
Oligonucleotide = ACCCUGU; value = -0.246
Oligonucleotide = CAAGUAA; value = 0.0315
Oligonucleotide = GGUCGAG; value = 0.0515
Oligonucleotide = GCAUUGA; value = -0.0156
Oligonucleotide = UCCGGAU; value = -0.255
Oligonucleotide = GGCACCU; value = -0.146
Oligonucleotide = GACGUCU; value = -0.369
Oligonucleotide = GCUAUAG; value = -0.262
Oligonucleotide = CACUUUG; value = -0.331
Oligonucleotide = CCAAGAC; value = -0.0844
Oligonucleotide = UCCCGGU; value = -0.3
Oligonucleotide = UUCCAUG; value = -0.275
Oligonucleotide = UCUUCUG; value = -0.445
Oligonucleotide = CCCUGGU; value = -0.412
Oligonucleotide = CAGAUAU; value = -0.115
Oligonucleotide = GCAGCCG; value = -0.0591
Oligonucleotide = UCUAAUG; value = -0.249
Oligonucleotide = CGCCCUC; value = -0.421

Sample 2
Target: Ras GTPase-activating protein-binding protein 1, RRM domain (G3BP1, Homo sapiens, UniProt Q13283)
Chain of UniProt Q13283 (whole entry, looked up): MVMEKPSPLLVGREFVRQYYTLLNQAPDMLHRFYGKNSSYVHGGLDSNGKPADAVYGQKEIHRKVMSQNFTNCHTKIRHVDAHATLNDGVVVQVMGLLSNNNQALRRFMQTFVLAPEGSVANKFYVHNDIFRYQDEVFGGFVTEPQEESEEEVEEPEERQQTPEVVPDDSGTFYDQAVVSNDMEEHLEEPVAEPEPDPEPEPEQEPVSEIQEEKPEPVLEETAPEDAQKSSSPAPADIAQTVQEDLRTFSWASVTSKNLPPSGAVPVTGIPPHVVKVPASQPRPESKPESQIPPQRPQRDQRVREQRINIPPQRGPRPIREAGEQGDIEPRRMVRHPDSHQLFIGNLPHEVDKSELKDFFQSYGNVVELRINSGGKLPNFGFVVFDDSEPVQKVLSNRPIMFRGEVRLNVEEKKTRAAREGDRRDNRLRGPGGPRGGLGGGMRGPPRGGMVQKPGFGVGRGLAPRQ
Method: RNA Bind-n-Seq
Form: RNA
Matrix: in vitro
Concentration: 1 µM
Notes: whole 134-nt RNA, ends assumed
Added: 150 mM KCl
Relative to: input library
Reading: higher = stronger binding
Measurement: log2 enrichment
Shared flanks, not repeated: GGGAGUUCUACAGUCCGACGAUC … UGGAAUUCUCGGGUGUCAAGG
Oligonucleotide = AGUCCUGUGCUACACAUCGUAUGUACCGAAUCGGGGUUUGGGGUGGGGUUUUUGGGGAAAGUAUUAUGUUACGCCGUUCGGAUCUGCACU; value = 0.614
Oligonucleotide = UGGGAGGUGGAGUUUGUUUAUUUUUUUAGCUCAUUUCCAGGGGUGGGAAUUUUUUUUUAAUAUGUGUCAUGAAUAAAGUUGUUUUUGAAA; value = 1.69
Oligonucleotide = UCAAGUCCUGUGCUACACAUCGUAUGUACCGAAUCGGCCCGGCCCGGGCCCGGGAAAGUAUUAUGUUACGCCGUUCGGAUCUGCACUUCC; value = -0.449
Oligonucleotide = AGUCCUGUGCUACACAUCGUAUGUACCGAAUCGGAAAAAAAGGAAAAAGGAAAAAGGAAAGUAUUAUGUUACGCCGUUCGGAUCUGCACU; value = 0.0116
Oligonucleotide = UAACUUUAGAGGAGGAUCUGAUGGAUAUGGCAGUGGACGUGGAUUUGGGGAUGGCUAUAAUGGGUAUGGAGGAGGACCUGGAGGUGGUAA; value = -0.176
Oligonucleotide = CAAGUCCUGUGCUACACAUCGUAUGUACCGAAUCGGGGCCGGGCCGGGGCCGGGGAAAGUAUUAUGUUACGCCGUUCGGAUCUGCACUUC; value = -1.16
Oligonucleotide = GCAGGAAGUAAAAACAAAUGGAAAUGCUUCGGAUAGUGGCAGAGGUGGGGGUUGCUAAGGAAAGGGUGGGAUGGGAGUGGGUAAAGAGUU; value = 0.987
Oligonucleotide = CACAGACAACACGCACCGACACAGACACAGAGGGAAGGGGUUGGGAUGGGGACAGGGUGCACAGCAGGGCGGGGUAGGACCCCAGCCCCU; value = -0.032
Oligonucleotide = UGGGAGGUGGAUUUUGUUUAUUUUUUUAGCUCAUUUCCAGGGGUGGGAAUUUGUUUUUAAUAUGUGUCAUGAAUAAAGUUGUUUUUGAAA; value = 1.36
Oligonucleotide = CAAGUCCUGUGCUACACAUCGUAUGUACCGAAUCGGUUUUUUUGGUUUUUGGUGGAAAGUAUUAUGUUACGCCGUUCGGAUCUGCACUUC; value = -0.406

Sample 3
Target: CREBL2, bZIP domain (human)
Method: DHFR protein complementation
Matrix: yeast
Notes: single substitutions, most at no-binding floor
Relative to: wild-type JUN-FOS pair
Reading: higher = stronger binding
Measurement: binding fitness
Parent: JUN, bZIP domain (human); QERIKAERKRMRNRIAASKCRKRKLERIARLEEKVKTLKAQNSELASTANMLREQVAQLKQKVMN; partner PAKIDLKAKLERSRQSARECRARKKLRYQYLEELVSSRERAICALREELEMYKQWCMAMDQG
Change = K34G; value = -1.43 natural log
Change = E33Q; value = -1.41 natural log
Change = A57W; value = -1.52 natural log
Change = A40G; value = -1.53 natural log
Change = L38D; value = -1.5 natural log
Change = R53H; value = -1.53 natural log
Change = S47K; value = -1.32 natural log
Change = R30A; value = -1.46 natural log
Change = R30C; value = -1.42 natural log
Change = S47L; value = -1.53 natural log
Change = A49Y; value = -1.4 natural log
Change = A29S; value = -1.48 natural log

Sample 4
Target: CCNA2, cyclin fold, Cln2 fusion (human)
Method: yeast growth competition, sequencing
Matrix: yeast
Notes: strong parent motif
Relative to: not given
Reading: higher = stronger binding
Measurement: normalised enrichment score
Parent: RB1 docking peptide (human); PKPLKKLRFDIEG
Change = PKPLKKSRFDIEG [L7S]; value = 1.32
Change = PKPLKKLRFTIEG [D10T]; value = 0.919
Change = PKPLKKLNFDIEG [R8N]; value = 2.17
Change = PKPLKKLRHDIEG [F9H]; value = -0.0146
Change = PKHLKKLRFDIEG [P3H]; value = 0.33
Change = PKPLKKLRFDTEG [I11T]; value = 0.118
Change = PKPYKKLRFDIEG [L4Y]; value = 2.37
Change = PKPLAKLRFDIEG [K5A]; value = 0.561
Change = PVPLKKLRFDIEG [K2V]; value = 1.16
Change = PKPLKKLRFDIWG [E12W]; value = 2.62
Change = PKPLKKLRFDMEG [I11M]; value = 0.657
Change = PKPSKKLRFDIEG [L4S]; value = 1.6
Change = PKPLKKLGFDIEG [R8G]; value = 0.458
Change = PKVLKKLRFDIEG [P3V]; value = 0.567
Change = PKPLKILRFDIEG [K6I]; value = 1.45
Change = PKPLPKLRFDIEG [K5P]; value = 0.564
Change = PKPLKKLRFDSEG [I11S]; value = 1.82

Sample 5
Target: TAR DNA-binding protein 43, full length, His tag (TARDBP, Homo sapiens, UniProt Q13148, residues 1-414)
Method: RNA Bind-n-Seq
Form: RNA
Matrix: in vitro
Concentration: 20 nM
Notes: 6-mer, flanks averaged, single round
Added: 150 mM LiCl
Relative to: input library
Reading: higher = stronger binding
Measurement: 6-mer enrichment (R)
Oligonucleotide = GUGUAA; value = 1.2
Oligonucleotide = CCGCAU; value = 0.924
Oligonucleotide = GUUUGG; value = 1.48
Oligonucleotide = UUAUAG; value = 0.995
Oligonucleotide = CUUGUC; value = 0.933
Oligonucleotide = AUGGCU; value = 0.938
Oligonucleotide = GCUCUC; value = 0.891
Oligonucleotide = UAUGUC; value = 1.03
Oligonucleotide = ACUACC; value = 0.862
Oligonucleotide = AUUGUU; value = 1.07
Oligonucleotide = ACGUGC; value = 0.926
Oligonucleotide = CAUAGA; value = 0.831
Oligonucleotide = UCACGG; value = 0.842
Oligonucleotide = GGUUAU; value = 1.07
Oligonucleotide = CUAUUG; value = 0.949
Oligonucleotide = GAUUUU; value = 1.05
Oligonucleotide = UCUUGA; value = 0.952

Some of these lines once more (sample 5):
Oligonucleotide = ACUACC; value = 0.862
Oligonucleotide = UCACGG; value = 0.842
Oligonucleotide = UUAUAG; value = 0.995
Oligonucleotide = CCGCAU; value = 0.924
Oligonucleotide = GUGUAA; value = 1.2
Oligonucleotide = UCUUGA; value = 0.952
Oligonucleotide = CUAUUG; value = 0.949
